Experimental data from different studies.
Parts stem from different laboratories: compare values within a part only. Substitutions count along the parent as printed.

Set 1 — technique: protein-binding microarray; molecule type: double-stranded DNA, one strand shown; medium: in vitro; concentration: 250 nM; setting: 60-bp whole probe; added: salmon DNA 0.4 mg/ml; relative to: random background probes; reading: higher = stronger binding; constant ends, left off below: GCCTAGCAC … GTCTTGATTCGCTTGACGCTGCTG
Target: Interferon regulatory factor 5, full length, phosphomimetic (IRF5, Homo sapiens, UniProt Q13568-2, residues 1-514, K96S/S451D/S453D/S456D/S462D)
`TCATTTTTTTTTTTTACACTGTGCTAG` gave a log fluorescence of 1.1 z-score.
`TAAGGTTTCGACACTGGGTTAGTGCTA` gave a log fluorescence of 3.95 z-score.
For `GACGGTTTCGGGTTTCGGGTCGTGCTA`, the log fluorescence was 8.64 z-score.
`GACGAACTGAGACTAGAGACGTGCTAG` gave a log fluorescence of -0.0655 z-score.
The log fluorescence of `TTAGGACTGCGTATCCTTTAGTGCTAG` is reported as -0.316 z-score.
`TTAGGTTTCGGACTGCGTTAGTGCTAG` gave a log fluorescence of 5.54 z-score.
For `TTAGATATCAGTCGCGATTAGTGCTAG`, the log fluorescence was 1.26 z-score.
For `GAGGATTTCAGTTCCGAGACGTGCTAG`, the log fluorescence was 0.666 z-score.
`TTAGGTCTCGGTTTCGGTTGGTGCTAG` has a log fluorescence of 8.24 z-score.
`CACGGTTTCCTTCTCCTGACGTGCTAG` gave a log fluorescence of 0.692 z-score.
The log fluorescence of `ATAGGACTGGGGTATCGGTTAGTGCTA` is reported as 2.21 z-score.
For `TTAGGTCTCGGTCTTGGTTAGTGCTAG`, the log fluorescence was 0.529 z-score.
`GACTGTTCCGGTTTCGGGACGTGCTAG` gave a log fluorescence of 4.91 z-score.
For `TTAGGACTGCTACTGCTCTAGTGCTAG`, the log fluorescence was -0.497 z-score.
`GACGACTTCGGGTTTCGAGACGTGCTA` gave a log fluorescence of 1.45 z-score.
The log fluorescence of `TTATGTATCCTACTGCTTTAGTGCTAG` is reported as 0.36 z-score.
For `TCATTTCTCCTATTTAAACTGTGCTAG`, the log fluorescence was 1.71 z-score.
`GACGATATCAGTATCCAGACGTGCTAG` gave a log fluorescence of 1.18 z-score.
With `TTAGGTCTCGGTCTCGGTTGGTGCTAG` the log fluorescence was 0.79 z-score.

Set 2 — target: CREB3L4, bZIP domain (human); technique: DHFR protein complementation; medium: yeast; relative to: wild-type JUN-FOS pair; reading: higher = stronger binding
Setting: single substitutions, most at no-binding floor
Starting sequence: JUN, bZIP domain (human); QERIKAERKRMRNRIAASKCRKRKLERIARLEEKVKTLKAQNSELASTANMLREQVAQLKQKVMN; partner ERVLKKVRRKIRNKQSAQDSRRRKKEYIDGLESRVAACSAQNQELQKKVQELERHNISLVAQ
`E32C` has a binding fitness of -1.24 natural log.
The binding fitness of `T37L` is reported as -1.3 natural log.
`R30K` gave a binding fitness of -1.31 natural log.
The binding fitness of `A29W` is reported as -1.43 natural log.
`M51G` gave a binding fitness of -1.37 natural log.
`S43V` has a binding fitness of -1.41 natural log.
The binding fitness of `L38H` is reported as -1.49 natural log.
`S43F` has a binding fitness of -1.38 natural log.
`S43A` has a binding fitness of -1.39 natural log.
`E32H` has a binding fitness of -1.49 natural log.
With `Q55W` the binding fitness was -1.51 natural log.
With `A49T` the binding fitness was -1.56 natural log.
`E44M` has a binding fitness of -1.46 natural log.
`R53N` has a binding fitness of -1.38 natural log.
With `K39W` the binding fitness was -1.48 natural log.
`S43I` has a binding fitness of -1.52 natural log.
For `V56F`, the binding fitness was -1.47 natural log.

Set 3 — technique: RNA Bind-n-Seq; molecule type: RNA; medium: in vitro; concentration: 200 nM; setting: whole 134-nt RNA, ends assumed; added: 150 mM LiCl; relative to: input library; reading: higher = stronger binding; library: 7-deaza-guanosine replaces G
Target: Fragile X messenger ribonucleoprotein 1, C-terminal low-complexity region (Fmr1, Mus musculus, UniProt P35922)
For `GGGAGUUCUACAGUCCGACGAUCGUCCUGUGCUACACAUCGUAUGUACCGAAUCAAAGUGUGUGUGUGUGUGUGUGUGUAAAAAAGUAUUAUGUUACGCCGUUCGGAUCUGCAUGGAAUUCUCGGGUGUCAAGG`, the log2 enrichment was -0.547.
`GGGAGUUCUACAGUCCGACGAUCGCAGGAAGUAAAAACAAAUGGAAAUGCUUCGGAUAGUGGCAGGGGUGGGGGUUGCUAAGGAAAGGAAAGGAUGGGAGUGGGUAAAGAGUUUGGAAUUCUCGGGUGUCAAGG` gave a log2 enrichment of 1.68.
`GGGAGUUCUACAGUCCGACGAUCCUGAAGAGUCUGAGGAUGCCCAAUCACAGAGCCAAGCAGAUGAAGAGGAGGAAGAUGAUGAUUUUGGGGUGGAGUACUUGCUUGCCAGGGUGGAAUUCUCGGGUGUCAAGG` has a log2 enrichment of -0.977.
With `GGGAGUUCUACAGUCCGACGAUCUAACUUUAGAGGAGGAUCUGAUGGAUAUGGCAGUGGACGUGGAUUUGGGGAUGGCUAUAAUGGGUAUGGAGGAGGACCUGGAGGUGGCCAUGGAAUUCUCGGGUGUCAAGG` the log2 enrichment was -1.58.
`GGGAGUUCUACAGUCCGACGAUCGUCCUGUGCUACACAUCGUAUGUACCGAAUCGGAAAAAAGGAAAAAAGGAAAAAAGGGGAAAGUAUUAUGUUACGCCGUUCGGAUCUGCAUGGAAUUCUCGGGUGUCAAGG` gave a log2 enrichment of -0.0921.
`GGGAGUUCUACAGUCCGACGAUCUCCUGUGCUACACAUCGUAUGUACCGAAUCGGGAAAAAAGGAAAAAAGGGAAAAAAGGGGAAAGUAUUAUGUUACGCCGUUCGGAUCUGCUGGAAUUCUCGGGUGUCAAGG` gave a log2 enrichment of -0.898.
The log2 enrichment of `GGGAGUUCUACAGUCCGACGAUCGUCCUGUGCUACACAUCGUAUGUACCGAAUCGGAAAAAAGGAAAAAAGGAAAAAAGGGAAAGUAUUAUGUUACGCCGUUCGGAUCUGCACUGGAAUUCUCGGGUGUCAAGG` is reported as -0.526.
The log2 enrichment of `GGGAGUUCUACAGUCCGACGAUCACCAUGCAGGUGGGCAUCUUUGGGAAGUGGGGCAAGGGGGGGAUAGGGAGGGGGGUAACACUUUGGGAACAGGUGGUCCCAGGUCGUCUCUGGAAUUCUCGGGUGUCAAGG` is reported as 1.57.

Set 4 — technique: RNA Bind-n-Seq; molecule type: RNA; medium: in vitro; concentration: 365 nM; relative to: no-protein control; reading: higher = stronger binding
Target: RNA binding protein fox-1 homolog 2, RRM domain, GST-SBP tag (RBFOX2, Homo sapiens, UniProt O43251-10, residues 100-194)
Setting: natural RNA segment, single round, ends assumed
Construct (chain): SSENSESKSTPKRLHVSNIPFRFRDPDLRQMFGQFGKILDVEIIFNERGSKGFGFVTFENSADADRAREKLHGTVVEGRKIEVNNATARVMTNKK
`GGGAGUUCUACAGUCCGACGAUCGAGCUAACAUAUUUAAUUAAAUAAAUAAAUCUGGGUCUGCAUCUCUUAUUAAAUAAAAAUAUAAAAAUAUGUACAUUACAUUUUGCUUAUUUUCAUAUAAAAGGUAAGAAUGGAAUUCUCGGGUGCCAA`: “RBNS enrichment (R)” 1.01.
`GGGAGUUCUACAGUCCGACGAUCACAGACUAAAUGUGCAAGCACCUUGAAGUGUGAGAACCUGUCCCCUCCUUAGCUCUCCUUGUCUUUGCUGUUGGUUGGUUAUUUCCUGCUUUGUGUCUGUUCUGAGCUGUUGGAAUUCUCGGGUGCCAA`: “RBNS enrichment (R)” 0.972.
Under “RBNS enrichment (R)”, `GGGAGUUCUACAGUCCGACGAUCUUCAGUUCCCGUCUCAGCUGUACUUUUGUGGGCCUGUCAUCUUGAUGACCAGAAUGAAAGCUUGCUCUGCCUCCUGCCAGCCAGAAUUGGUGGCGGGACUUGGGGAUACAUGGAAUUCUCGGGUGCCAA` is recorded as 1.28.
For `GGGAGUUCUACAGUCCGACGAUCUUCAAUCAACAUCUCUUGAGUGUCUAUUAUGUACAGGACAUGUACUGAGACAAAAAGGAAACAUAAGAGCUUUUUCACUCUAAAAAUCUUGGCAAUAAUGUCAACACCAGUGGAAUUCUCGGGUGCCAA`, “RBNS enrichment (R)” read 0.411.
Under “RBNS enrichment (R)”, `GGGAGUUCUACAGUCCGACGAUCUGGUACCGGGGGUGGGGCUGUCACAACUGAAAACCCUCCAGCUGGAAUGGACAAUGUGCCCCCAACACCAACUCCUCCUGCCCUCCACUGUGGUAGAGUCUGGGACCAACUGGAAUUCUCGGGUGCCAA` is recorded as 0.417.
For `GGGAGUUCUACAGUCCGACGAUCUGAUUUCCUGACUUUAUGUUCUUGUGUUAUAAUGUUAUCCUAACCUCCAAAGAUAUUUGCACUGCUUUUAAUUAUUGCUGUGUAUCUAUUUCUUUGGGUAUUAUAACUGUUGGAAUUCUCGGGUGCCAA`, “RBNS enrichment (R)” read 0.267.
For `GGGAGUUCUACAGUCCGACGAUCGUGGAGGUUUUGGCAAUGAGCUGUUUAACUUGGCCAAGCUAGGCUGUCAACCCAGACAACUCAGUCCUUUCAUGUAAAUUUUUGGGCAAGAGAAGUCUGCUUUGACUGCCUGGAAUUCUCGGGUGCCAA`, “RBNS enrichment (R)” read 0.33.
`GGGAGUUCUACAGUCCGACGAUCUCUUGUCCAGCAGGGCCUUGACAGGAAUCCAGGGAGUAGCUCCUGGCCAGAACCAGCCUCUGCGGGGCUUGUGCUCUGCAAAGACUCUGCUGCUGGGGAUUCAGCUCUAGUGGAAUUCUCGGGUGCCAA` — result for “RBNS enrichment (R)”: 0.203.

For quick reference, copied from above (set 2):
The binding fitness of `T37L` is reported as -1.3 natural log.
`R30K` gave a binding fitness of -1.31 natural log.
With `Q55W` the binding fitness was -1.51 natural log.
